Assay results of several laboratories.
A part holds a random share of what one study measured.

Study 1 — method: RNA Bind-n-Seq; molecule type: RNA; medium: in vitro; concentration: 365 nM; reference: no-protein control; reading: higher = stronger binding
Target: RNA binding protein fox-1 homolog 2, RRM domain, GST-SBP tag (RBFOX2, Homo sapiens, UniProt O43251-10, residues 100-194)
Notes: natural RNA segment, single round, ends assumed
Shared flanks, not repeated: GGGAGUUCUACAGUCCGACGAUC … UGGAAUUCUCGGGUGCCAA
Target sequence (chain): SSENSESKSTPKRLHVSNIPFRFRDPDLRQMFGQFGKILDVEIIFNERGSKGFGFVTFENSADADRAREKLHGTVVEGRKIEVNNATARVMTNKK
| Sequence | RBNS enrichment (R) |
| --- | --- |
| CCCCUCUGCCUUCCUCCCCAAUCCUGACUGGCUCCUAGGGAAGGGGAAGGCUCCUGGAGGGCAGCCCUACCUCUCCCAUGCCCUUUGCCCUCCUCCCUCGCCUCCAGUGG | 0.585 |
| UCCACGCCUGUACAUUUCAGAUGGCAGCGAUUUGGGUCCUUGGGGCUUUUGGCCCUUGGCCAGAAGUGCAUGCUUUUCCUGAGCAGAGCACUUAGCAACCUUCCCCUCUC | 0.467 |
| UGGCUUUCUUUUUGACUGUGCUUGGGAGCAAAGUCAGAUGGGCAGCUGGGUGUGUGUUUAGAGCUCUACGAAUUGUCAAUAACACAUGCUUCUCUGUCCCAGGGGUCCUA | 0.4 |
| CUGUCUCCAAAAGAAAGAAAUCCCAGCGUAGAUCCAAACUGAGACACUGAGGCUUCGUCCUUAUAGUAGUCAGGAGCAGGCGAUUGAAGUAAUUCUGUCCUGCGGGGUUC | 0.283 |
| UGAAUAUGUUUUAUAUGUUAUGAAGAAAAGAAUUGUUGUAAGUUUUUGAUUCUACUCUUAUAUGCUGGACUGCAUUCACACAUGGCAUGAAAUAAGUCAGGUUCUUUACA | 1.33 |
| UACGGGGAUUUACAUAGAUUACAGUGGCCAAGACCCCUUUCUCAAUGAAGGAUCUCAUUGGACGUCCUGUCAAUCAUUAAUCUACAUGCAGGCUUGUUCCCACACUACCU | 0.379 |
| AGCGUUCACAGUUAGAUUUUCACCUCGUGCCACUCUCUUUUGGGGUCUGGCUUGAGCAUCUAUGGGCAGCCACAGCGACCAGUCUAGUCCCAGACAGCACAGGUCAAGCA | 0.488 |
| AAGGAAUAAAUCCAGUGAAGAAUGGUUGUUGAUCAUCUAUCCAAAGUCCCAGGUUUAAAAAGCAAAGCAAAACAAAAAUAACCACGUAUUCUCUAAAGGGCUCUUGUCUG | 0.711 |
| AAUUGUUAUAACCACACCUUUUUGAAAUCUGCCCUACAAAAUUUGUUUGGCUUAAACGUCAAAGCCGUGACAAUUUGUUCUUUGAUGUGAUUGUAUUUCCAAUUUCUUGU | 0.432 |
| GGCAGCAGCUUCUUCGAGAAGGAUGGGGCUCCCUUUUGCCCCGAGUGCUACUUUGAGCGCUUCUCCCCACGAUGUGGCUUCUGUAACCAACCCAUCCGACACGAAAUGGU | 0.211 |
| AGGCCUGAGAGAGGAGCUGCUCAGUUUACAGAACAGGAGCGGGUUACCAGACUCAUUCUUUUCAUCCAGCAGGCUAGUGGGAAGGAAUGGGUGUUCCUGUUUAACUUUCU | 0.338 |
| GGAGAGCACGUUGAUCUGAACUUUAAAUCAAUCAGUGCUGCUGGCACAAUGAAAGGUGGAACUGCACUUCUGUUGAGCUCUCAGUUCUGCGGAAUUUGGUACUCAUUACC | 0.78 |

Study 2 — method: universal PBM; molecule type: double-stranded DNA, one strand shown; medium: in vitro; concentration: not given; reading: higher = stronger binding
Target: Sal-like protein 4, full length isoform B (SALL4, Homo sapiens, UniProt Q9UJQ4-2, residues 1-616)
Notes: 8-mer, flanks averaged, mean of replicates
| Sequence | E-score |
| --- | --- |
| AGCCTTTC | -0.251 |
| AGGACGCA | -0.234 |
| CGGCCAAC | -0.267 |
| CCCGACTA | -0.198 |
| ACTCTGCG | -0.148 |
| GCTAACCA | -0.191 |
| ATGGCAAA | 0.0759 |
| CATTACAA | 0.261 |
| AACAAACC | 0.0574 |
| CTAAACCA | 0.0783 |
| TGCTCGAA | -0.0209 |
| TAACTCGA | 0.137 |
| ATGACATC | 0.156 |
| GCGTTGCA | -0.177 |
| ACTAGATA | 0.288 |
| ACTTCGAC | 0.0419 |
| AGATACCA | 0.0683 |
| AAAAAACG | 0.195 |
| AAACACGA | 0.104 |
| CCCCCTCC | -0.325 |
| ACCCGCAG | -0.105 |
| AGATATTG | 0.321 |
| CAGACTTC | -0.1 |
| AATAAAGA | 0.295 |
| CGGGTGGA | -0.225 |

Study 3 — method: RNA Bind-n-Seq; molecule type: RNA; medium: in vitro; concentration: 200 nM; notes: whole 134-nt RNA, ends assumed; together with: 150 mM LiCl; reference: input library; reading: higher = stronger binding; all molecules: 7-deaza-guanosine replaces G
Target: Fragile X messenger ribonucleoprotein 1, C-terminal low-complexity region (Fmr1, Mus musculus, UniProt P35922)
Shared flanks, not repeated: GGGAGUUCUACAGUCCGACGAUC … UGGAAUUCUCGGGUGUCAAGG
| Sequence | log2 enrichment |
| --- | --- |
| UGGCCCUGGUGGAAUGCGGGGAGGAAGAGGUGGCCUCAUGGAUCGUGGUGGUCCCGGUGGAAUGUUCAGAGGUGGCCGUGGUGGAGACAG | 0.687 |
| CACAGACAACACGCACCCACACAGACACAGAGGGAAGGGGUUGGGAUGGGGACACGGUGCACAGCAGGGCGGGGUAGGACCCCAGCCCCU | 0.0676 |
| CAAGUCCUGUGCUACACAUCGUAUGUACCGAAUCGGGCCCGGGGCCCGGCCCGGGGAAAGUAUUAUGUUACGCCGUUCGGAUCUGCACUU | -2.55 |
| GUCCUGUGCUACACAUCGUAUGUACCGAAUCGGUUUUUGGUUUUUUUGGAAAAAAAGGAAAGUAUUAUGUUACGCCGUUCGGAUCUGCAC | -2.26 |
| UGGGAGGUGGAUUUUGUUUAUUUUUUUAGCUCAUUUCCAGGGGUGGGCAUUUUUUUUUAAUAUGUGUCAUGAAUAAAGUUGUUUUUGAAA | -0.111 |
| GCAGGAAGUAAAAACAAAUGGAAAUGCUUCGCAUAGUGGCAGGGGUGGGGGUUGCUAAGGAAAGGGUGGGAUGGGAGUGGGUAAAGAGUU | 1.79 |
| CUCAAGUCCUGUGCUACACAUCGUAUGUACCGAAUCGGGUUGGUUGGGGUUGGAAAGUAUUAUGUUACGCCGUUCGGAUCUGCACUUCCA | -0.613 |
| ACCAUGCAGGUGGGCAUCUUUGGGAAGUGUGGCAAGGGGGGGAUAGGGAGGGGGGUAACACUUUGGGAACAGGUGGUCCCAGGUCGUUUC | 1.41 |
| GCAGGAAGUAAAAACAAAUGGAAAUGCUUCGGAUAGUGGCAGGGGUGGGGGUAGCUAAGGAAAGGGUGGGAUGGGAGUGGGUAAAGAGUU | 1.85 |
| GCAGGAAGUAAAAACAAAUGGAAAUGCUUCGGAUAGUGGCAGGGGUGGGGGUUCCUAAGGAAAGGGUGGGAUGGGAGUGGGUAAAGAGUU | 1.12 |
| UCAAGUCCUGUGCUACACAUCGUAUGUACCGAAUCGGUUUGGAAAGGUUUUUGGAAAGUAUUAUGUUACGCCGUUCGGAUCUGCACUUCC | -1.1 |

Study 4 — method: RNA Bind-n-Seq; molecule type: RNA; medium: in vitro; concentration: 100 nM; notes: RNA with constant flanks, ends assumed; reference: input RNA pool; reading: higher = stronger binding
Target: RING finger protein unkempt homolog, zinc fingers 1-6, SBP tag (UNK, Homo sapiens, UniProt Q9C0B0, residues 30-357)
Sequence of UniProt Q9C0B0 (30-357, looked up): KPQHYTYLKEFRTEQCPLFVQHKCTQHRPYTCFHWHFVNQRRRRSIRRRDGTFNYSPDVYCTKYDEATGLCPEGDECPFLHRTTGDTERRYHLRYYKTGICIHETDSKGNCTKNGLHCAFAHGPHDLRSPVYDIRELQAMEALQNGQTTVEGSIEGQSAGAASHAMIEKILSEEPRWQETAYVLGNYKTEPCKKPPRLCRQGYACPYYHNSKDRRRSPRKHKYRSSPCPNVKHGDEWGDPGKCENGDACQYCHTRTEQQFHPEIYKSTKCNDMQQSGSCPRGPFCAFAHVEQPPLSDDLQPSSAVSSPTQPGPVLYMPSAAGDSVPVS
Shared flanks, not repeated: GGGAGUUCUACAGUCCGACGAUC … CAACAGAGGAUUGAGCAUCA
| Sequence | bound/input enrichment |
| --- | --- |
| UAUUGUAUGCCGAGAAAAAUUUUCAUUGACUCCCAUUGUGGAAUUCCCCCGCAAUUUAUUCCGACUUAAUUUUUUAAAUUCAAGCUUACUGUAUCCGUCAUUUUCCGCCCAUAAUUAAAA | 1.49 ratio |
| UGCAUUAUUUGACCAGAGUUGAAGUGACAGAAUUUGAAGAUAUUAAAUCAGGUUACAGAACCGAUUUUUAUUUUGAUGAAAAUCCUUACUUUGAAAAUAAAGUUCUCUCCAAAGAAUUUC | 0.196 ratio |
| GGGACGUUUUGAUGUAAAAAUUGAAGUUAAGAGCUGAUCACAAGCACAAAUCUUUCCCACCCGCCAUUUAAUAAGUUAAAAAAAGAUACAAAAACAAAAACCUACCCGUCUUGAACAAAC | 0.531 ratio |
| CUUUUUUUUUUGCACAUGACAGUGUUUGUAUUGAGGACCUUCCAAGGAAGAGGGAUGCUGCCGCAGUGGUGCCUGGGUGCCUGGCCUCCAGUGUCCCACCUCCUUCACCACCCCACUUGG | 0.466 ratio |
| CUACUAUAAACAACUCAGGGCAGUAUUCUCGAUAUCCUUACAGUAACCUAAAUCAGGGAUCCGUUAACAAUACAGGGAUGAAUCAAAAUUCCGGCCUUACAAAUAAUACUCCAAUGAAUC | 0.531 ratio |

Study 5 — method: protein binding microarray; molecule type: double-stranded DNA, one strand shown; medium: in vitro; concentration: not given; reference: not given; reading: higher = stronger binding
Target: Histone acetyltransferase KAT6A, both winged helices, GST fusion (KAT6A, Homo sapiens, UniProt Q92794, residues 1-181)
Notes: 8-mer, flanks averaged, mean of 2 arrays, mostly near background
Construct (chain): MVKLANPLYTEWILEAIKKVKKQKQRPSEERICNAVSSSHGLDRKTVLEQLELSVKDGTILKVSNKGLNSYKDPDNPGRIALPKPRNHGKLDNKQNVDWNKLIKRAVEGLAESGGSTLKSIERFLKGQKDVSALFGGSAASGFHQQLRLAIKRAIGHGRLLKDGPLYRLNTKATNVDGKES
| Sequence | E-score |
| --- | --- |
| CACCGACA | 0.0186 |
| CGTGTAAG | 0.0158 |
| GCTAAACC | 0.0506 |
| CATCAACC | 0.0118 |
| GGTGAAAA | 0.00161 |
| GAGGCACA | -0.186 |
| ACTCCTGG | -0.139 |
| TGAACGCA | 0.0567 |
| AAGGCGCA | 0.193 |
| GTTGCGAA | -0.069 |
| ATTGGGGA | -0.221 |
| CCCGCTGC | 0.192 |
| CGTCGCAA | 0.198 |
| ACCGCGAT | 0.297 |
| CGCATCCG | 0.307 |
| GCCGAGGA | 0.114 |
| CTGATAAC | 0.0418 |
| AACCGAAT | 0.0548 |

Excerpt of the above (study 2):
| Sequence | E-score |
| --- | --- |
| ACTAGATA | 0.288 |
| AAACACGA | 0.104 |
| CATTACAA | 0.261 |
| CGGCCAAC | -0.267 |
| TAACTCGA | 0.137 |
| ACTCTGCG | -0.148 |
| ATGACATC | 0.156 |
| CAGACTTC | -0.1 |
| GCGTTGCA | -0.177 |
| CGGGTGGA | -0.225 |
